{"sequences": {"note": "Protein sequences, listed by entry. Tags and fused reporters are not part of them.", "UniProt P10635, whole entry": "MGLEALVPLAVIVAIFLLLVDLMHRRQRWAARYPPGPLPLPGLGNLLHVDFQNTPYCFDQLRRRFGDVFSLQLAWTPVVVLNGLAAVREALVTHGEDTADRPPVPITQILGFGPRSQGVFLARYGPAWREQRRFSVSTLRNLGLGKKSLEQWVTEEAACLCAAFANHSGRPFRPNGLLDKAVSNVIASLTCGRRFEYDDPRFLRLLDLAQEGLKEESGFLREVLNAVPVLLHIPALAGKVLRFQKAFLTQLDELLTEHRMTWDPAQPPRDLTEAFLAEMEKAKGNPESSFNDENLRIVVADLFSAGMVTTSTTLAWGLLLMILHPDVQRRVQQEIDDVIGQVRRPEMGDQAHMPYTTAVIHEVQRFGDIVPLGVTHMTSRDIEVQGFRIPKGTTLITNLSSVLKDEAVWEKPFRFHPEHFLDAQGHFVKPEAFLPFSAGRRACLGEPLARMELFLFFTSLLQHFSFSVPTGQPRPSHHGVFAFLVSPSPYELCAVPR", "UniProt P35869, whole entry, looked up": "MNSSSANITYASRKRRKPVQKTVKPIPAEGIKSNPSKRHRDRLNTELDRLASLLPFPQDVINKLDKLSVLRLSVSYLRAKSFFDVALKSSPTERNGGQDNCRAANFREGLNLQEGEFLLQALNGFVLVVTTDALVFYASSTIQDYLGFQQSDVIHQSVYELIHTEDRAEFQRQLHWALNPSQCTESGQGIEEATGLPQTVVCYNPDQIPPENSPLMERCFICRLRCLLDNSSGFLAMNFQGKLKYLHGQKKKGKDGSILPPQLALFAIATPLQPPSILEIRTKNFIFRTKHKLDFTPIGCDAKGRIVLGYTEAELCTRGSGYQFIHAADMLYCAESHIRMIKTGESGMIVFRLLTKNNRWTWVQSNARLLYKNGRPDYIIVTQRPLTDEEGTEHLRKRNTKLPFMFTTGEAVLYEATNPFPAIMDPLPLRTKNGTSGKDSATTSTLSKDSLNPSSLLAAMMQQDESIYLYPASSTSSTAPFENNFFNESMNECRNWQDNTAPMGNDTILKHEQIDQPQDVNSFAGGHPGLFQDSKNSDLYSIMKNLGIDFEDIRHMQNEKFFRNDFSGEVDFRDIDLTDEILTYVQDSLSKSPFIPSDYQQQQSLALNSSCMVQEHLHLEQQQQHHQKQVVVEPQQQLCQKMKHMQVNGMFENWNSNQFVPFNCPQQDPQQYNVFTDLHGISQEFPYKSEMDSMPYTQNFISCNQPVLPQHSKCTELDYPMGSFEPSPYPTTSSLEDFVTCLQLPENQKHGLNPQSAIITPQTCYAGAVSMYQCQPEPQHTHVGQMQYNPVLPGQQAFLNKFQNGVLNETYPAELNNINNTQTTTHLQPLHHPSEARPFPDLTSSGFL", "UniProt P11712, whole entry": "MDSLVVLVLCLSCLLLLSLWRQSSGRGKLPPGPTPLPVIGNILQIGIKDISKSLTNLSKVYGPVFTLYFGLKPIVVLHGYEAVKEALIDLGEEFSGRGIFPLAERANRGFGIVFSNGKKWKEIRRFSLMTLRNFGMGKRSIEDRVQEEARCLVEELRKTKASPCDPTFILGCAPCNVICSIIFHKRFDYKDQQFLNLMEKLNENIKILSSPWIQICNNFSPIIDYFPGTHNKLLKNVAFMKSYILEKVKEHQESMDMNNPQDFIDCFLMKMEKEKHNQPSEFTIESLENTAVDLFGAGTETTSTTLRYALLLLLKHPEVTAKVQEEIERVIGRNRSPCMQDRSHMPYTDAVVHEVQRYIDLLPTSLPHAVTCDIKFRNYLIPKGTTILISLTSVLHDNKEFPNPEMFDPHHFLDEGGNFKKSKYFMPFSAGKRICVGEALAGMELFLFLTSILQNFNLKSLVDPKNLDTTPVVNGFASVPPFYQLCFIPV", "UniProt P08183, whole entry": "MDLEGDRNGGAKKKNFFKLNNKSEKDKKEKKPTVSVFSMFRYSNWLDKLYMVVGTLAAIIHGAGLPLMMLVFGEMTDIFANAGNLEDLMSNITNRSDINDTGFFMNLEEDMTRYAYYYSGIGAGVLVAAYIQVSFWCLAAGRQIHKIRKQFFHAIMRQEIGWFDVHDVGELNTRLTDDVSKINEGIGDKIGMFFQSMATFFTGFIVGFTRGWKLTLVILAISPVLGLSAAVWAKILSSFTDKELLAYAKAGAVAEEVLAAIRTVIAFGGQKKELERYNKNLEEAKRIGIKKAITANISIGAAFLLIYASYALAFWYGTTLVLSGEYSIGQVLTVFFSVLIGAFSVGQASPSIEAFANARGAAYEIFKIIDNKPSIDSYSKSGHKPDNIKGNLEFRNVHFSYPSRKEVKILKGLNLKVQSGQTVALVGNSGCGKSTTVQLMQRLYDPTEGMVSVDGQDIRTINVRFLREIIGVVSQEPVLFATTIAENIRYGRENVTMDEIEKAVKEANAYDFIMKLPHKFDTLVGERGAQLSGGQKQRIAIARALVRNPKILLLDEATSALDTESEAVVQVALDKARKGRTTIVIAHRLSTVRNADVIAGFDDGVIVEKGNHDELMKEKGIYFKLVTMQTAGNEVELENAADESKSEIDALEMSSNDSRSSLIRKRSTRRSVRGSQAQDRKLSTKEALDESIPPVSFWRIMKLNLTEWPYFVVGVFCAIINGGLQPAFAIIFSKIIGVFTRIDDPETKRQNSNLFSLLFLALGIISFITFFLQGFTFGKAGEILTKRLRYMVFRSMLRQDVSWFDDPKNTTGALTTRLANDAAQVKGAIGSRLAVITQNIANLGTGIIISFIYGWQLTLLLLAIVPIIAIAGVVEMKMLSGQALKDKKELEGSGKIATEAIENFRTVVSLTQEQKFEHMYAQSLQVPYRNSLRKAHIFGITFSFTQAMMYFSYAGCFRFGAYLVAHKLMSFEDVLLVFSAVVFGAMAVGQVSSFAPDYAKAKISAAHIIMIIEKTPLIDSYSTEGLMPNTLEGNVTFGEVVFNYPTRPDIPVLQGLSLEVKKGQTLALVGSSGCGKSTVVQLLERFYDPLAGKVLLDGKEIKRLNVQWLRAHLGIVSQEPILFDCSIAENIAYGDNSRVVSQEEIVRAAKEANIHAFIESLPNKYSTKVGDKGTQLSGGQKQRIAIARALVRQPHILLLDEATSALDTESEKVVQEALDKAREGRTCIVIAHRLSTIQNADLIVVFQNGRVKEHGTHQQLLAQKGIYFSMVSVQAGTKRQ", "UniProt Q12809, whole entry": "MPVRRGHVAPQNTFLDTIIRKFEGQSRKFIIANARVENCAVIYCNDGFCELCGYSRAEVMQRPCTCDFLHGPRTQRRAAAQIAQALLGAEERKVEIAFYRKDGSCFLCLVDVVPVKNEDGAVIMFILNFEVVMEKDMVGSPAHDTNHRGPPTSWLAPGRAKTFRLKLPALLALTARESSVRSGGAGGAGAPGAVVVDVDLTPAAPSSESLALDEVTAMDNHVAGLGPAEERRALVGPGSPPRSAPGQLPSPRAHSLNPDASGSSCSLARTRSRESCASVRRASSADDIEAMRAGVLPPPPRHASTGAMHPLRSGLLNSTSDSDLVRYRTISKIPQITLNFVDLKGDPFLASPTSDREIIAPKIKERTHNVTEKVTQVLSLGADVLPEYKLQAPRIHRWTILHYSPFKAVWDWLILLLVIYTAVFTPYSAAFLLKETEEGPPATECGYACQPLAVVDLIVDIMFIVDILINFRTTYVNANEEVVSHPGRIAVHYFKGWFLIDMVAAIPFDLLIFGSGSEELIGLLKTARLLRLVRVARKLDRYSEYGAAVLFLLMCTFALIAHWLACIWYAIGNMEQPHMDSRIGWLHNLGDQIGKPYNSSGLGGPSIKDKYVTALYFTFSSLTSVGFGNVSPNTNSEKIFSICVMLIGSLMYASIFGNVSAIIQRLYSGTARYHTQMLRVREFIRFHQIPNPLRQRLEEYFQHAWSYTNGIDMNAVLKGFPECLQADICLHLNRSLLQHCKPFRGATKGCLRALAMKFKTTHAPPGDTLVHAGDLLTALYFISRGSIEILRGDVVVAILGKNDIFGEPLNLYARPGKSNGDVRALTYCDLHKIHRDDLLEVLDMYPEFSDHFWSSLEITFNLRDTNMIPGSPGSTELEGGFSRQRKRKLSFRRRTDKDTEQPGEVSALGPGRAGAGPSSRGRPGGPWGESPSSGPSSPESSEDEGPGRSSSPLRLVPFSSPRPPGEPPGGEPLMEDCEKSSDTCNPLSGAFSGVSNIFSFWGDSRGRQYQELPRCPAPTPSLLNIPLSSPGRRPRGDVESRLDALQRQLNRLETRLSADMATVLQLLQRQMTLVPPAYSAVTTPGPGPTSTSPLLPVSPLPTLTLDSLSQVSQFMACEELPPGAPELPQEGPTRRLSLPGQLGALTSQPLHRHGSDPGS", "UniProt O94788, whole entry": "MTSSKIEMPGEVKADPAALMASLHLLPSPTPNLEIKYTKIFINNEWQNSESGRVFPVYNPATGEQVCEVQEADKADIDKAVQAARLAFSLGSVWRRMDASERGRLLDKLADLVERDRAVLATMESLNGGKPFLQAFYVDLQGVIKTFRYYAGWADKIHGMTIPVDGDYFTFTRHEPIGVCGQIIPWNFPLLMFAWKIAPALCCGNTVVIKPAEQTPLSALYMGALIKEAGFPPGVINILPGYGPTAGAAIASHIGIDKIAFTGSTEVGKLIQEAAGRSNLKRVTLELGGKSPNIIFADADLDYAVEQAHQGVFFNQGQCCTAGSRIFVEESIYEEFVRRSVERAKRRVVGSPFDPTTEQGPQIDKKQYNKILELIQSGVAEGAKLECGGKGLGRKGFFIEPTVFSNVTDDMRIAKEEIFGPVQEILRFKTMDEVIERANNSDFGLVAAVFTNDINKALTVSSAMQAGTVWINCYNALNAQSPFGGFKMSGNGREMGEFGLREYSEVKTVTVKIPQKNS", "UniProt P33261, whole entry": "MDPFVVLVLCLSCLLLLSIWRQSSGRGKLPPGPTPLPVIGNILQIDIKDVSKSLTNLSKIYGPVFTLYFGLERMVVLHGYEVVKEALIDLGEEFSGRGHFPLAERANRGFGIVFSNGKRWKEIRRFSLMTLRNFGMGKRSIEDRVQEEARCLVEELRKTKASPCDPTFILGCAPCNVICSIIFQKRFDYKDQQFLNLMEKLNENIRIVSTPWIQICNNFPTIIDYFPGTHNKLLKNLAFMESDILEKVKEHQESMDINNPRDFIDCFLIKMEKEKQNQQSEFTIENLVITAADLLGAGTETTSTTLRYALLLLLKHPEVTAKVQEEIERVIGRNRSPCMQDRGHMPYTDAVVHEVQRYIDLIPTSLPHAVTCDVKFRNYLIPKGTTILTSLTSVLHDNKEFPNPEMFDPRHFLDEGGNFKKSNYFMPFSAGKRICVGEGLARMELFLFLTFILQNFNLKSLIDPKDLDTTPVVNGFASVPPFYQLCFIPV", "UniProt P00176, whole entry": "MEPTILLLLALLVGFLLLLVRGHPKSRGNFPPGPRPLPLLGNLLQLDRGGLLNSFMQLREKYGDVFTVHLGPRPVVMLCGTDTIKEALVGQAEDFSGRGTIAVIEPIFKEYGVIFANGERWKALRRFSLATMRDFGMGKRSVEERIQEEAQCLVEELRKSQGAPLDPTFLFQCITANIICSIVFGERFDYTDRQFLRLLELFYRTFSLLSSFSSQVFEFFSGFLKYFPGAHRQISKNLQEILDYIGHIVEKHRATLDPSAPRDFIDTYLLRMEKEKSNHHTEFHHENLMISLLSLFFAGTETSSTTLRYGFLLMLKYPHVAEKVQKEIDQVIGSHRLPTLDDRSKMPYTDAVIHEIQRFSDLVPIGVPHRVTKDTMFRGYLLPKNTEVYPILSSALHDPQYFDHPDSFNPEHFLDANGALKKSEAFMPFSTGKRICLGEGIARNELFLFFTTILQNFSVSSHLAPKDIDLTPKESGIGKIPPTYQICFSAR"}, "data": "Measurements from different studies", "CYP2D6": "Cytochrome P450 2D6 (CYP2D6, Homo sapiens, UniProt P10635)", "AHR": "Aryl hydrocarbon receptor (AHR, Homo sapiens, UniProt P35869)", "CYP2C9": "Cytochrome P450 2C9 (CYP2C9, Homo sapiens, UniProt P11712)", "ABCB1": "ATP-dependent translocase ABCB1 (ABCB1, Homo sapiens, UniProt P08183)", "KCNH2": "Voltage-gated inwardly rectifying potassium channel KCNH2 (KCNH2, Homo sapiens, UniProt Q12809)", "ALDH1A2": "Retinal dehydrogenase 2 (ALDH1A2, Homo sapiens, UniProt O94788)", "CYP2C19": "Cytochrome P450 2C19 (CYP2C19, Homo sapiens, UniProt P33261)", "note": "Protocols differ between the studies behind these lines. Values joined by “and” are separate records of one study, mostly repeats; a detail may differ. Numbers after ± are the reported error."}
{"Structure (SMILES)": "Cc1ccc(NC(=O)C2CC3CCC2C3)c(C)c1 (stereo not shown)", "target": "CYP2D6", "test": "enzyme activity, inhibitor", "quantity": "IC50", "value": "> 30000 nM"}
{"Structure (SMILES)": "COc1ccc(C(=O)c2c[nH]c3ccccc23)cc1", "target": "AHR", "test": "reporter gene, agonist", "system": "HepG2 transfected XRE-luciferase", "conditions": "4.5 h", "quantity": "EC50", "value": "> 10000 nM"}
{"Structure (SMILES)": "COc1ccc(NC(=O)CN2CCCN(S(=O)(=O)c3cccs3)CC2)c(OC)c1", "target": "CYP2C9", "test": "enzyme activity, inhibitor", "quantity": "IC50", "value": "2600 nM"}
{"Structure (SMILES)": "C[N+](C)=c1ccc2c(-c3ccccc3)c3cc4c5c(c3[te]c-2c1)CCCN5CCC4", "target": "ABCB1", "test": "ATPase activity, substrate", "conditions": "half-maximal ATPase stimulation", "quantity": "Km", "value": "4.4 ± 0.8 µM"}
{"Structure (SMILES)": "COC(=O)c1cccc(C(=O)c2cn(C)c3ccccc23)n1", "target": "AHR", "test": "reporter gene, agonist", "system": "HepG2 transfected XRE-luciferase", "conditions": "4.5 h", "quantity": "EC50", "value": "329 nM"}
{"Structure (SMILES)": "CC(=O)Nc1ccc2c3c(cccc13)C(=O)N(CCCCN1CCN(CCCCN3C(=O)CN(/N=C/c4ccc(-c5ccc(Cl)cc5)o4)C3=O)CC1)C2=O", "target": "KCNH2", "test": "probe binding", "conditions": "10 µM", "how to read": "reference: probe without hERG", "quantity": "fluorescence enhancement", "value": "~10 fold"}
{"Structure (SMILES)": "Cc1ccc(NC(=O)C2CC3CCC2C3)cc1 (stereo not shown)", "target": "CYP2C9", "test": "enzyme activity, inhibitor", "quantity": "IC50", "value": "> 30000 nM"}
{"Structure (SMILES)": "N=c1ccc2c(-c3ccccc3)c3ccc(N)cc3sc-2c1", "target": "ABCB1", "test": "ATPase activity, substrate", "conditions": "half-maximal ATPase stimulation", "quantity": "Km", "value": "32 ± 3 µM"}
{"Structure (SMILES)": "CNCCNC(=O)c1cc2c([nH]c3c(C)cccc32)c(-c2ccc(Cl)c(Cl)c2)n1", "target": "KCNH2", "test": "ion current, inhibitor", "quantity": "IC50", "value": "2040 nM"}
{"Structure (SMILES)": "O=C(OC1CCCCC1)c1cccc(C(=O)c2c[nH]c3ccccc23)n1", "target": "AHR", "test": "reporter gene, agonist", "system": "HepG2 transfected XRE-luciferase", "conditions": "4.5 h", "quantity": "EC50", "value": "1200 nM"}
{"Structure (SMILES)": "CN(C)c1ccc2c3c(cccc13)C(=O)N(CCN1CCN(CCCCN3C(=O)CN(/N=C/c4ccc(-c5ccc(Cl)cc5)o4)C3=O)CC1)C2=O", "target": "KCNH2", "quantity": "Ki", "value": "123 nM"}
{"Structure (SMILES)": "COc1ccc(S(=O)(=O)N2CCCN(CC(=O)Nc3ccc(OC)cc3OC)CC2)cc1", "target": "CYP2D6", "test": "enzyme activity, inhibitor", "quantity": "IC50", "value": "> 20000 nM"}
{"Structure (SMILES)": "CCCn1c(NCc2cccc(Cl)c2O)nc2ccccc21", "target": "ALDH1A2", "test": "enzyme activity, inhibitor, NADH absorbance 340 nm", "conditions": "pH 7.5, 25 °C, 200 µM NAD+, together with: 100 µM propionaldehyde", "quantity": "EC50", "value": "240 ± 57 nM"}
{"Structure (SMILES)": "COc1ccc(CC(=O)OCc2ccc(-n3cccn3)cc2)cc1F", "target": "CYP2C19", "test": "inhibitor", "conditions": "10 µM", "quantity": "inhibition", "value": "7.7%"}
{"Structure (SMILES)": "Cc1ncc(CCc2ccc3c(c2)c(=O)c(C(N)=O)cn3-c2ccc(F)cc2)cn1", "target": "ABCB1", "system": "MDCK-MDR1", "how to read": "reference: B-A over A-B", "quantity": "efflux ratio", "value": 44}
{"Structure (SMILES)": "CC(C)c1ccc(NC(=O)C2CC3CCC2C3)cc1 (stereo not shown)", "target": "CYP2C9", "test": "enzyme activity, inhibitor", "quantity": "IC50", "value": "27000 nM"}
{"Structure (SMILES)": "CN(C)c1ccc2c(CCCOc3ccccc3)c3ccc(=[N+](C)C)cc-3sc2c1", "target": "ABCB1", "test": "ATPase activity, substrate", "conditions": "half-maximal ATPase stimulation", "quantity": "Km", "value": "3 µM and 3.2 µM"}
{"Structure (SMILES)": "CCCn1c(NCc2cccc(F)c2O)nc2ccccc21", "target": "ALDH1A2", "test": "enzyme activity, inhibitor, NADH absorbance 340 nm", "conditions": "pH 7.5, 25 °C, 200 µM NAD+, together with: 100 µM propionaldehyde", "quantity": "EC50", "value": "1000 ± 160 nM"}
{"Structure (SMILES)": "CNCCNC(=O)c1cc2c([nH]c3ccccc32)c(-c2cc(Cl)c(Cl)c(Cl)c2)n1", "target": "KCNH2", "test": "ion current, inhibitor", "quantity": "IC50", "value": "1600 nM"}
{"Structure (SMILES)": "OCC1Nc2ccc(Cl)cc2C(C#CC2CC2)(C(F)(F)F)O1 (stereo not shown)", "target": "Cytochrome P450 2B1 (Cyp2b1, Rattus norvegicus, UniProt P00176)", "test": "substrate, cDNA-expressed enzyme with cytochrome b5", "conditions": "10 µM, 30 min, together with: 10 nM enzyme", "how to read": "reference: rat CYP2B1 over human CYP2B6", "quantity": "metabolite formation ratio", "value": "< 2 fold"}
{"Structure (SMILES)": "O=C1CN(/N=C/c2ccc(-c3ccc(Cl)cc3)o2)C(=O)N1CCCCN1CCN(CCCCN2C(=O)c3cccc4cccc(c34)C2=O)CC1", "target": "KCNH2", "quantity": "Ki", "value": "130 nM"}
{"Structure (SMILES)": "O=C(N[C@H](Cc1ccccc1)C(=O)O)c1sc2cc(F)ccc2c1Cl", "target": "CYP2C19", "test": "enzyme activity", "conditions": "concentration not given", "quantity": "inhibition", "value": "no effect"}
{"Structure (SMILES)": "Cc1cccc(NC(=O)C2CC3CCC2C3)c1C (stereo not shown)", "target": "CYP2C9", "test": "enzyme activity, inhibitor", "quantity": "IC50", "value": "> 30000 nM"}
{"Structure (SMILES)": "Cc1n[nH]c(C)c1CCOC(=O)c1cccc2c1oc(=O)n2C", "target": "KCNH2", "test": "potassium current, inhibitor", "quantity": "IC50", "value": "> 50000 nM"}
{"Structure (SMILES)": "COc1ccc(NC(=O)CN2CCCN(S(=O)(=O)c3ccc(C)cc3)CC2)c(OC)c1", "target": "CYP2D6", "test": "enzyme activity, inhibitor", "quantity": "IC50", "value": "13900 nM"}
{"Structure (SMILES)": "COc1cnc(C(=O)c2c[nH]c3ccccc23)cn1", "target": "AHR", "test": "reporter gene, agonist", "system": "HepG2 transfected XRE-luciferase", "conditions": "4.5 h", "quantity": "EC50", "value": "7020 nM"}
{"Structure (SMILES)": "C[N+](C)=c1ccc2c(-c3ccccc3)c3ccc(N)cc3sc-2c1", "target": "ABCB1", "test": "ATPase activity, activator", "system": "sheep brain phosphatidylethanolamine", "conditions": "30 min, 37 °C", "how to read": "reference: basal activity", "quantity": "Vmax", "value": "7.5 ± 1.5 fold"}
{"Structure (SMILES)": "COc1ccc(NC(=O)CN2CCCN(S(=O)(=O)c3ccccc3)CC2)c(OC)c1", "target": "CYP2D6", "test": "enzyme activity, inhibitor", "quantity": "IC50", "value": "> 20000 nM"}
{"note": "For quick reference, copied from above:"}
{"Structure (SMILES)": "COc1ccc(NC(=O)CN2CCCN(S(=O)(=O)c3ccccc3)CC2)c(OC)c1", "target": "CYP2D6", "test": "enzyme activity, inhibitor", "quantity": "IC50", "value": "> 20000 nM"}
{"Structure (SMILES)": "C[N+](C)=c1ccc2c(-c3ccccc3)c3ccc(N)cc3sc-2c1", "target": "ABCB1", "test": "ATPase activity, activator", "system": "sheep brain phosphatidylethanolamine", "conditions": "30 min, 37 °C", "how to read": "reference: basal activity", "quantity": "Vmax", "value": "7.5 ± 1.5 fold"}
